Results gathered from unrelated publications.
Numbered parts are unrelated; each lists some results of a single study.

Block 1
Target: Ras GTPase-activating protein-binding protein 1, full length (G3BP1, Homo sapiens, UniProt Q13283)
UniProt Q13283, sequence (whole entry, looked up): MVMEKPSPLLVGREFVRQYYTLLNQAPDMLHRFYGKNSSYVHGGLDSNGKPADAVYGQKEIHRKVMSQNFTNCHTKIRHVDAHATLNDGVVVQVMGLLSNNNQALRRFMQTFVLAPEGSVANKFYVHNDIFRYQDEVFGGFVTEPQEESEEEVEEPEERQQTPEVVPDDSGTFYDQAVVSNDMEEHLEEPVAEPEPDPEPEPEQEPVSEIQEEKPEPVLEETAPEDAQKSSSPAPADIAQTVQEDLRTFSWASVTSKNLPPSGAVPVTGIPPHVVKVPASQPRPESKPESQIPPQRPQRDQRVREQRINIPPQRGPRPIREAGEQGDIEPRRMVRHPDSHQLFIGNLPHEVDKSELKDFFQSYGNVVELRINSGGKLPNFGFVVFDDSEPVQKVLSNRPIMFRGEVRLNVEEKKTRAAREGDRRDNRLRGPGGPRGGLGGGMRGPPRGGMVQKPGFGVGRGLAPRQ
Technique: RNA Bind-n-Seq
Molecule type: RNA
Matrix: in vitro
Concentration: 200 nM
Setting: whole 134-nt RNA, ends assumed
Together with: 150 mM KCl
Reference: input library
Direction: higher = stronger binding
All sequences stand within: GGGAGUUCUACAGUCCGACGAUC … UGGAAUUCUCGGGUGUCAAGG
The log2 enrichment of `CCUGUGCUACACAUCGUAUGUACCGAAUCGGGGAAAAAAAGGGGUUUUUGGGGUUUGGGGAAAGUAUUAUGUUACGCCGUUCGGAUCUGC` is reported as 0.231.
For `CUCAAGUCCUGUGCUACACAUCGUAUGUACCGAAUCGGGGAGGGAGGGGAGGGAAAGUAUUAUGUUACGCCGUUCGGAUCUGCACUUCCA`, the log2 enrichment was 1.5.
`UGGGGUCUGCGUACGCCUGGAGUCCUUCCCCGCUGUGCUCAGCAUGGACCCUAUCCGGAGCUUCUGCGGGAAGCUGCGGUCUCUGGCCAG` has a log2 enrichment of -0.661.
With `ACCAUGCAGGUGGGCAUCUUUGGGAAGCGGGGCAAGGGGGGGAUAGGGAGGGGGGUAACACUUUGGGAACAGGUGGUCCCAGGUCGUUUC` the log2 enrichment was 1.33.
For `AGUCCUGUGCUACACAUCGUAUGUACCGAAUCGGGGUGGGGUUUUUUUGGGGAGGGGAAAGUAUUAUGUUACGCCGUUCGGAUCUGCACU`, the log2 enrichment was 0.593.
For `UCCAGUCUAGCUUUGGAGAAGCGCCAACCUGCUCACUGCCGCCGACCAGACUGCAUGUUUGGUUGUACUUGUUUGAAAAGAAAAGUUGUA`, the log2 enrichment was -1.11.
With `AAGUCCUGUGCUACACAUCGUAUGUACCGAAUCGGGGUUUGGGGUUUGGGUUUGGGGAAAGUAUUAUGUUACGCCGUUCGGAUCUGCACU` the log2 enrichment was 0.184.
The log2 enrichment of `ACCAUGCAGGUGGGCAUCUUUGGGAAGUGGGGCAAGGGUGGGAUAGGGAGGGGGGUAACACUUUGGGAACAGGUGGUCCCAGGUCGUUUC` is reported as 0.969.
The log2 enrichment of `CAAGUCCUGUGCUACACAUCGUAUGUACCGAAUCGGGUUUGGGAGGGUUUUUGGGAAAGUAUUAUGUUACGCCGUUCGGAUCUGCACUUC` is reported as 0.479.
`AGUCCUGUGCUACACAUCGUAUGUACCGAAUCAAACCCCCCCAAACCCAAAUUUAAAAAAGUAUUAUGUUACGCCGUUCGGAUCUGCACU` gave a log2 enrichment of -0.218.
For `CCUGUGCUACACAUCGUAUGUACCGAAUCGGUUUUUUUGGUUUUUUUGGGGUUUUUUUGGAAAGUAUUAUGUUACGCCGUUCGGAUCUGC`, the log2 enrichment was -0.991.
`ACCAUGCAGGUGGGCAUCUUUGGGAAGUGGGGCAAGGGGGGGAUAGGGAGGGGGGUAACACCUUGGGAACAGGUGGUCCCAGGUCGUUUC` has a log2 enrichment of 1.11.
With `UGGCCCUGGUGGCAUGCGGGGAGGAAGAGGUGGCCUCAUGGAUCGUGGUGGUCCCGGUGGAAUGUUCAGAGGUGGUCGUGGUGGAGACAG` the log2 enrichment was 0.534.
With `UCCUGUGCUACACAUCGUAUGUACCGAAUCGGAAAAAAGGGAAAAAAGGGGAAAAAAGGAAAGUAUUAUGUUACGCCGUUCGGAUCUGCA` the log2 enrichment was -0.884.

Block 2
Target: Prothrombin, mature alpha-thrombin (F2, Homo sapiens, UniProt P00734)
Technique: aptamer microarray, sandwich
Molecule type: DNA with 2'F-ANA
Matrix: in vitro
Concentration: 200 nM
Setting: whole 15-mer aptamer, many near background
Together with: Cy3 exosite-II aptamer, 400 nM
Direction: higher = stronger binding
Sequence: GGTTGGTGTGGTTGG
For `2'F-ANA at 2 3 4 7 8 9 13 14`, “mean fluorescence intensity” read 265 a.u.
Under “mean fluorescence intensity”, `2'F-ANA at 1 5 6 8 9` is recorded as 103 a.u.
`2'F-ANA at 1 2 3 4 5 6 9 11 15` — result for “mean fluorescence intensity”: 53 a.u.
`2'F-ANA at 1 3 4 6 7 9 10 13 14 15`: “mean fluorescence intensity” 75.4 a.u.
For `2'F-ANA at 1 6 7 9 14`, “mean fluorescence intensity” read 55.5 a.u.
For `2'F-ANA at 1 3 6 8 9 10 11 12 15`, “mean fluorescence intensity” read 96.9 a.u.
`2'F-ANA at 1 2 4 8 9 10 13`: “mean fluorescence intensity” 61.2 a.u.
Under “mean fluorescence intensity”, `2'F-ANA at 2 3 4 6 10 12 15` is recorded as 276 a.u.
For `2'F-ANA at 2 7 8 9 11`, “mean fluorescence intensity” read 447 a.u.
`2'F-ANA at 2 3 5 7 9 15`: “mean fluorescence intensity” 97 a.u.
`2'F-ANA at 2 3 6 8 10 11 14` — result for “mean fluorescence intensity”: 231 a.u.
Under “mean fluorescence intensity”, `2'F-ANA at 3 8 9 10 11 12 15` is recorded as 666 a.u.
Under “mean fluorescence intensity”, `2'F-ANA at 1 3 4 6 7 11 12 13 14` is recorded as 73.7 a.u.
For `2'F-ANA at 3 5 6 8 9 12 14`, “mean fluorescence intensity” read 63.8 a.u.
`2'F-ANA at 1 2 3 5 6 7 8 9 11 12 14` — result for “mean fluorescence intensity”: 74.7 a.u.
Under “mean fluorescence intensity”, `2'F-ANA at 2 3 6 8 9 11 13 14` is recorded as 311 a.u.
`2'F-ANA at 1 2 5 6 8 12 13 15` — result for “mean fluorescence intensity”: 86.7 a.u.
`2'F-ANA at 1 2 3 4 5 7 13 14 15`: “mean fluorescence intensity” 45.2 a.u.
For `2'F-ANA at 2 3 4 5 6 8 12 13`, “mean fluorescence intensity” read 132 a.u.
`2'F-ANA at 2 3 12 13`: “mean fluorescence intensity” 1010 a.u.
`2'F-ANA at 3 4 5 7 8 9 12 13 15`: “mean fluorescence intensity” 126 a.u.
For `2'F-ANA at 1 2 5 8 9 10 12 13 15`, “mean fluorescence intensity” read 70 a.u.
Under “mean fluorescence intensity”, `2'F-ANA at 1 4 5 6 7 11 12 15` is recorded as 79 a.u.
For `2'F-ANA at 1 2 3 4 5 7 8 12 14 15`, “mean fluorescence intensity” read 62.2 a.u.
For `2'F-ANA at 2 3 5 8 9 10 12 14`, “mean fluorescence intensity” read 54.2 a.u.

Block 3
Target: Histone acetyltransferase KAT6A, winged helix 1, GST fusion (KAT6A, Homo sapiens, UniProt Q92794, residues 1-85)
Technique: protein binding microarray
Molecule type: double-stranded DNA, one strand shown
Matrix: in vitro
Concentration: not given
Setting: 8-mer, flanks averaged, mean of 2 arrays, mostly near background
Reference: not given
Direction: higher = stronger binding
Residues (chain): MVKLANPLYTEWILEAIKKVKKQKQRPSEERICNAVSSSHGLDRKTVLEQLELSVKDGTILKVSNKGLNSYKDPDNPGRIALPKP
The E-score of `GGACTGCA` is reported as -0.235.
`ATTGGCTG` gave an E-score of -0.155.
The E-score of `CTGGCCAG` is reported as -0.245.
With `ACCGAGTG` the E-score was -0.000635.
The E-score of `ATCCGATC` is reported as 0.137.
The E-score of `AATCTCCG` is reported as 0.191.
The E-score of `GCAGACTA` is reported as 0.0679.
`AGCTGTGG` gave an E-score of -0.218.
For `ATAACCGG`, the E-score was 0.225.
With `AGTACCGG` the E-score was 0.116.
For `GACATCTC`, the E-score was -0.0174.
`TGGCTCAA` gave an E-score of -0.126.
`ACCAAAAT` gave an E-score of -0.0658.
The E-score of `AGAAAATC` is reported as -0.102.
The E-score of `CCTAGCTC` is reported as -0.103.
`ACTCCCTA` has an E-score of -0.155.
With `AAGCGGCT` the E-score was 0.301.
The E-score of `GACGACGA` is reported as -0.101.
`ATTGCTCA` gave an E-score of -0.2.
For `CCGAAAGC`, the E-score was 0.148.
With `AAGTTATA` the E-score was -0.0992.
For `AGTTGGGC`, the E-score was -0.239.
`GAGTCAAA` has an E-score of -0.149.
`AGTATTGA` has an E-score of -0.0376.
With `GATGGGCC` the E-score was -0.0231.

Block 4
Target: RNA binding protein fox-1 homolog 2, RRM domain, GST-SBP tag (RBFOX2, Homo sapiens, UniProt O43251-10, residues 100-194)
Technique: RNA Bind-n-Seq
Molecule type: RNA
Matrix: in vitro
Concentration: 365 nM
Setting: natural RNA segment, single round, ends assumed
Reference: no-protein control
Direction: higher = stronger binding
All sequences stand within: GGGAGUUCUACAGUCCGACGAUC … UGGAAUUCUCGGGUGCCAA
Residues (chain): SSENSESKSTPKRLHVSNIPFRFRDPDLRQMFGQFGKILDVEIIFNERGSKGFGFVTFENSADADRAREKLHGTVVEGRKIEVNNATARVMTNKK
`CAUCUCAGGGCCUCACUUUCUGCACACACCUCCCUGCCUGAGAGCAGACACAAACAGGCCCAUAGCCUCUCCUCUGCUGUUAGAGCAAUGCAGCUGGGCCCAGAACACCC` — result for “RBNS enrichment (R)”: 0.341.
`UACCAUGUAAUGUAACAUCAAUUAAGAGAAUAUCUGUAGUUACCAUAUUUAAGAUUUGAGAUACCAAAAGAAUGUCCCUCAAGGGACAUUGCCAUUUAUUCUAGAAUUAA` — result for “RBNS enrichment (R)”: 0.433.
Under “RBNS enrichment (R)”, `ACCAAGACUGAAAGAGGCAAGGUCUCCUUGCCUCGGCCCAGUGAUCAUGACAGGAAUGAACCCAAACUCAGAACAAUAAAAUCAAUUCUGUGCUCCCCACGCGGGGCUUG` is recorded as 0.287.
`UCCUGUGACAACAGCCAGUUUAGAAAAACUCCCUGUACCCCAGAUCAGUGGAACUGCAACAUCUACUGGAUCAGCUCCAUCCUCAAGCACUUUGCCAGCAGCUUCUAGCC` — result for “RBNS enrichment (R)”: 0.879.
Under “RBNS enrichment (R)”, `GACUCUGCUGCCUCCAUGUCCUCUCUGGGACCUGACUCUCCACAGGGAGGGAGACUCCUUGUCCCAGACCUCAGUCCUGCUUCCAACUGCCUUCCUUGCCCUCACUGUUC` is recorded as 1.74.
`GUUGGUGAUUCAACUUGGGCUCCAAGACUUGGGUAAGCUCUGGGCCUUCACAGAAUGAUGGCACCUUCCUAAACCCUCAUGGGUGGUGUCUGAGAGGCGUGAAGGGCCUG` — result for “RBNS enrichment (R)”: 0.421.
For `CCCUCACCCCACUCUCUUCCCAUGUUCGUUGAUCCACCCCUAUCUGAGAAACUCCAGCCUCAAGAAUAUAAUCUCAUUCUAACCUUCACCUCUUCAACUUCUUCUGUGGC`, “RBNS enrichment (R)” read 1.98.
Under “RBNS enrichment (R)”, `CUUAUUGAUAUUGGUCUGAUGGUUUGUGAACUCUUGCUGGGAAUCAAAAUUUCCUUGAGACUCUUUAGCAUUCAUACUUUGGGGUUAAAGGAGAUUCCUCAGACUCAUCC` is recorded as 0.217.
Under “RBNS enrichment (R)”, `CAGUGAGGGAGAGAGACCCCGACUCCAUUUGUACUUCUUUCUUGACACUCUUCUCAGCUUAUAAAAUUUGCCGUUUUGUAUAUUUUUAAAUAUGGAUCAAAAAGAGUCUU` is recorded as 0.492.
`GUUGGCCUGUGUGUUCCAUCUCUGCUCACCUCUGCCUCUACUCUGAGAUGCAGCCUGGCUGAUCCUCCCAUCUCUAAAACUGAAUGUCAAACCGUGCCAAAUGCUGGGGG`: “RBNS enrichment (R)” 0.66.
For `AAGUUCGGUGUUGGAGCGAUACUCAAUGUAGUCAGUCUACACCUGGACGUGUGGGCCACUUAAGCCCUCCCCACCCCCAUCCUAUUCCUGAAUAAAACCAGGAUAAUGGA`, “RBNS enrichment (R)” read 0.176.
Under “RBNS enrichment (R)”, `UAAAUGAUGACUACUGUUUGGGGUUUUGAGACCCCGCUGUGUAAAUGUGUGUCUUUCACAGGAGUGACUGCUGCGUGUAAGAGAGCUGUCAAUCAAACUUAUGGUCAUUU` is recorded as 3.34.

For quick reference, copied from above (block 4):
Under “RBNS enrichment (R)”, `ACCAAGACUGAAAGAGGCAAGGUCUCCUUGCCUCGGCCCAGUGAUCAUGACAGGAAUGAACCCAAACUCAGAACAAUAAAAUCAAUUCUGUGCUCCCCACGCGGGGCUUG` is recorded as 0.287.
`UCCUGUGACAACAGCCAGUUUAGAAAAACUCCCUGUACCCCAGAUCAGUGGAACUGCAACAUCUACUGGAUCAGCUCCAUCCUCAAGCACUUUGCCAGCAGCUUCUAGCC` — result for “RBNS enrichment (R)”: 0.879.
Under “RBNS enrichment (R)”, `GACUCUGCUGCCUCCAUGUCCUCUCUGGGACCUGACUCUCCACAGGGAGGGAGACUCCUUGUCCCAGACCUCAGUCCUGCUUCCAACUGCCUUCCUUGCCCUCACUGUUC` is recorded as 1.74.
`GUUGGUGAUUCAACUUGGGCUCCAAGACUUGGGUAAGCUCUGGGCCUUCACAGAAUGAUGGCACCUUCCUAAACCCUCAUGGGUGGUGUCUGAGAGGCGUGAAGGGCCUG` — result for “RBNS enrichment (R)”: 0.421.
For `CCCUCACCCCACUCUCUUCCCAUGUUCGUUGAUCCACCCCUAUCUGAGAAACUCCAGCCUCAAGAAUAUAAUCUCAUUCUAACCUUCACCUCUUCAACUUCUUCUGUGGC`, “RBNS enrichment (R)” read 1.98.
Under “RBNS enrichment (R)”, `CUUAUUGAUAUUGGUCUGAUGGUUUGUGAACUCUUGCUGGGAAUCAAAAUUUCCUUGAGACUCUUUAGCAUUCAUACUUUGGGGUUAAAGGAGAUUCCUCAGACUCAUCC` is recorded as 0.217.
Under “RBNS enrichment (R)”, `CAGUGAGGGAGAGAGACCCCGACUCCAUUUGUACUUCUUUCUUGACACUCUUCUCAGCUUAUAAAAUUUGCCGUUUUGUAUAUUUUUAAAUAUGGAUCAAAAAGAGUCUU` is recorded as 0.492.
